Published values from different studies.
Parts stem from different laboratories: compare values within a part only.

Study 1 — technique: protein-binding microarray; form: double-stranded DNA, one strand shown; medium: in vitro; concentration: 2200 nM top; notes: 60-bp whole probe; together with: salmon DNA 0.4 mg/ml; baseline: random background probes; direction: higher = stronger binding; shared flanks, not repeated: GCCTAGCAC … GTCTTGATTCGCTTGACGCTGCTG
Target: Interferon regulatory factor 7, full length, phosphomimetic (IRF7, Homo sapiens, UniProt Q92985, residues 1-503, S471D/S472D/S475D/S476D/S477D/S483D/S484D/S487D)
Target sequence (chain): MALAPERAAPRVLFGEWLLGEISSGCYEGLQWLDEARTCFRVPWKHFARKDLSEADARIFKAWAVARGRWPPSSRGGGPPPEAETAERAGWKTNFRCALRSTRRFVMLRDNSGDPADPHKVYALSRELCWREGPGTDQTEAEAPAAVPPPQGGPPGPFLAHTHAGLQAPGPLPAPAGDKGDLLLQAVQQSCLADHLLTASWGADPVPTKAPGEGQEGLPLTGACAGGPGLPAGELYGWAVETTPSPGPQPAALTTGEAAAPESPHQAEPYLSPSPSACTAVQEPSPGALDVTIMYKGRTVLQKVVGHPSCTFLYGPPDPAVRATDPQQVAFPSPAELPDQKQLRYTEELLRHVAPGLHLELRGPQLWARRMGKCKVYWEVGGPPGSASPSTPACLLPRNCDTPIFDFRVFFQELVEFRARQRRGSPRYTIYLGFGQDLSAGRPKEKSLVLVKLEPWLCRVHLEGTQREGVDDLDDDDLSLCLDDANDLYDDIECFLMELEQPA
Strand	fitted relative affinity
TCATATATGTGATTAAAACTGTGCTAG	0.406 z-score
TCATTTTTTTTTTCTACACTGTGCTAG	2.61 z-score
GACGGTTTCAGGTTTCGGGACGTGCTA	5.13 z-score
GACGACCTGGGGACTGGAGACGTGCTA	-0.548 z-score
GACGGACTGGGGTTTGGGGACGTGCTA	-0.62 z-score
TTAGGTATCGGGTTTGGGTTAGTGCTA	1.19 z-score
ATGTCCTCCTCTCTCTTTCCGTGCTAG	2.67 z-score
GACGGTACCCTACTGCTGACGTGCTAG	0.138 z-score
GACGGTCGCCTACTGCTGACGTGCTAG	-0.248 z-score
GAGGATATCGGGTATCGAGACGTGCTA	-0.317 z-score
TCAAATGCCCTTTTGGTACTGTGCTAG	0.642 z-score

Study 2 — technique: RNA Bind-n-Seq; form: RNA; medium: in vitro; concentration: not given; baseline: input RNA pool; direction: higher = stronger binding
Target: RING finger protein unkempt homolog, zinc fingers 1-6, GST-SBP tag (UNK, Homo sapiens, UniProt Q9C0B0, residues 30-357)
Notes: RNA with constant flanks, human-mouse chimeric sites, ends assumed
Residues (chain): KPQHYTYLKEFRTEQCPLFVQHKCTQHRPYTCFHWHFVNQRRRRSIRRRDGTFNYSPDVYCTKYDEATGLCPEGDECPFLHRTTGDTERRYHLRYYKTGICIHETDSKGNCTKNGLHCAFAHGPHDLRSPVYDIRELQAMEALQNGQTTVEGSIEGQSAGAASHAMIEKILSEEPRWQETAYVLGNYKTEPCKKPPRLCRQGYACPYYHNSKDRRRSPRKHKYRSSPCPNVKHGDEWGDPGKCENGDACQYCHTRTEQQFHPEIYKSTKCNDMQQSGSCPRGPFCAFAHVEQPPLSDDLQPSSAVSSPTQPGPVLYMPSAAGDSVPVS
Strand	bound/input enrichment
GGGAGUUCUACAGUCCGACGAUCGAUCCACAGUGGUCUGAGGAGCAACUCAUUGCUGCAAAAUUCUGUUUUGCUGGCCUUCUUAUAGGCCAGACUGAAGUGGACAUCAUGAGUCAUGCCACACAAGCUAUAUUUGAAAUACUGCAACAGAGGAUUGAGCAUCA	0.149 ratio
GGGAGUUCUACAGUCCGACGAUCUUACCCGAGAACGAGGAUGAGCUGGAGAGCACCAACAGGCGCUACACCAAGAGGGACUGCAGCACUUUUCUCAGAACUAGUGAGACGGGCAUCGUGGACCAGGUCAUGGUCACUCUCAACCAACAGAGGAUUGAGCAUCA	0.169 ratio
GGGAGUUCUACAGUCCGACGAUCACAGUUAUAUUGUUGAGUUUCAUUUUCAUAUAUUCUUGUAGUGUCUGCUUGCCUGUGUCUUUUAGUAAAAUAAGACUAGCCUUUGAAAAUAUUUUAGCAUGGUAUUUAACAUUUUCUAAACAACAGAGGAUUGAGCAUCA	10.4 ratio
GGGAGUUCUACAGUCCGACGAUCUGACAAGGGCACUGCAGAGCCAUGCCUUUCCUUGACAUACAGAAAAAGUUCGGCCUUAGCCUGGACCGGCACUUUAUGUUCCUAAGCGCAGAACAGCCCUAUAAGAAGGCUGGUCGAUGCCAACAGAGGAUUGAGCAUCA	0.0884 ratio
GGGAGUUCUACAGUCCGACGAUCCAGUCCCCGUGUCCCAGUGCAGGACGAUGUGAACAAAAACUCAAAGCGGACCCUCUACUGUAGUUGAUGAUUCUCGAAAUGUGCUAUUAUUGUUUGUAAAAAAGGAAUUUUUUUUAAAGACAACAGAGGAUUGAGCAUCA	0.272 ratio
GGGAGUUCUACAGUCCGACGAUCAACUUCGUGCAUCGGUUUCCUUUUGUAGCUGUUUCAAUUGGCUUCCUUGUGAAUAAAAAGAUAGAAUUUGGAAUUGUGUACAGCUGUGUGGAAGAUAAGAUGUACACCGGCAGGAAAGGGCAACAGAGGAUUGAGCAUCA	3.22 ratio

Study 3 — technique: RNA Bind-n-Seq; form: RNA; medium: in vitro; concentration: 1 µM; notes: whole 134-nt RNA, ends assumed; together with: 150 mM KCl; baseline: input library; direction: higher = stronger binding
Target: Ras GTPase-activating protein-binding protein 1, C-terminal RGG region (G3BP1, Homo sapiens, UniProt Q13283)
Chain of UniProt Q13283 (whole entry, looked up): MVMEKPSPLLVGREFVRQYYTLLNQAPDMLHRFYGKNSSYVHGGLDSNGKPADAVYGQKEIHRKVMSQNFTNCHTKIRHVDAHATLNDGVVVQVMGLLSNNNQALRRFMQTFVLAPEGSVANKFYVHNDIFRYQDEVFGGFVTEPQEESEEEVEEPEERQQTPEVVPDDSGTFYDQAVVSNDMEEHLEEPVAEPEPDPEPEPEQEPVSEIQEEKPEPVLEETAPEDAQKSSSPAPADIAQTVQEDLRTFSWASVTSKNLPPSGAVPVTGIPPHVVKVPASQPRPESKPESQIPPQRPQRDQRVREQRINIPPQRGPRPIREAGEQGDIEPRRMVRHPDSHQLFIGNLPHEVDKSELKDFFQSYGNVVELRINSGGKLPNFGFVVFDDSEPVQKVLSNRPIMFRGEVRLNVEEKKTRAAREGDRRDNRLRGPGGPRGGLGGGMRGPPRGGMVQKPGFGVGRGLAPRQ
Strand	log2 enrichment
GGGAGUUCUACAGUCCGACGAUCGCAGGAAGUAAAAACAAAUGGAAAUGCUUCGGAUAGUGGCAGGGGUGGGUGUUGCUAAGGAAAGGGUGGGAUGGGAGUGGGUAAAGAGUUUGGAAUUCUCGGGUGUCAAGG	1.48
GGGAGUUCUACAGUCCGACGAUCCCUGUGCUACACAUCGUAUGUACCGAAUCGGGGUUUUUGGGGAAAAAGGGGAAAAAGGGGAAAGUAUUAUGUUACGCCGUUCGGAUCUGCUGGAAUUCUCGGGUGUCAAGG	0.793
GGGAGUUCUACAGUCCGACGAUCAGUCCUGUGCUACACAUCGUAUGUACCGAAUCGGGGUUUUGGGUUUUGGGUUUUGGGAAAGUAUUAUGUUACGCCGUUCGGAUCUGCACUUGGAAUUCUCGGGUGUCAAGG	0.973
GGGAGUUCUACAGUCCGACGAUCUUGACAUGAAGACAAUGGAGACUGCAGAGAAACUGGCUAGAUUUGUUGCUCAGGUGGGACCAGAGAUCGAACAAUUCAGCAUAGAAAACAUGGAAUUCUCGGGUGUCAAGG	-1.44
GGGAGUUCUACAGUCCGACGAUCCUCAAGUCCUGUGCUACACAUCGUAUGUACCGAAUCGGGGAAGGGAAGGAAGGAAAGUAUUAUGUUACGCCGUUCGGAUCUGCACUUCCAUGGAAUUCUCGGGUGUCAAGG	-1.18
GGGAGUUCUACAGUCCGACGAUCUAACUUUAGACGAGGAUCUGAUGGAUAUGGCAGUGGACGUGGAUUUGGGGAUGGCUAUAAUGGGUAUGGAGGAGGACCUGGAGGUGGCAAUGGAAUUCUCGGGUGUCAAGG	-1.68
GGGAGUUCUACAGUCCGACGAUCACCAUGCAGGUCGGCAUCUUUGGGAAGUGGGGCAAGGGGGGGAUAGGGAGGGGGGUAACACUUUGGGAACAGGUGGUCCCAGGUCGUUUCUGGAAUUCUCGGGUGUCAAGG	-1.65
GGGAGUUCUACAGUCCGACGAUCCCUGUGCUACACAUCGUAUGUACCGAAUCAAAUUUUUUUAAAUUUUUUUAAACCCCCAAAAAAGUAUUAUGUUACGCCGUUCGGAUCUGCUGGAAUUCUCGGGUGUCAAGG	-0.877

Study 4 — technique: protein binding microarray; form: double-stranded DNA, one strand shown; medium: in vitro; concentration: not given; baseline: not given; direction: higher = stronger binding
Target: Histone acetyltransferase KAT6A, winged helix 2, GST fusion (KAT6A, Homo sapiens, UniProt Q92794, residues 85-181)
Notes: 8-mer, flanks averaged, mean of 2 arrays, mostly near background
Target sequence (chain): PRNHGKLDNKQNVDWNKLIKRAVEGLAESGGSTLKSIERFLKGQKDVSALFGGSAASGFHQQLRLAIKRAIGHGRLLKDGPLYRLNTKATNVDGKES
Strand	E-score
ACCAGTAC	-0.0978
CCCATGAA	-0.0403
TATTCAGA	0.0425
CTAGAGCC	-0.146
CCGCTCAA	0.0602
GTCCTGAA	-0.0274
ATGACTAG	-0.271
AATAAGGT	-0.12
CAATTCAC	0.00721
AAAATTTG	0.00063
CCACATAG	-0.157
CACCCCCG	-0.0423
GAAGAGAC	0.0432
CACGTCTC	-0.173
ATGACATC	-0.0617

For quick reference, copied from above (study 1):
Strand	fitted relative affinity
TCATTTTTTTTTTCTACACTGTGCTAG	2.61 z-score
TTAGGTATCGGGTTTGGGTTAGTGCTA	1.19 z-score
ATGTCCTCCTCTCTCTTTCCGTGCTAG	2.67 z-score
GACGGTCGCCTACTGCTGACGTGCTAG	-0.248 z-score
GACGGACTGGGGTTTGGGGACGTGCTA	-0.62 z-score
GACGACCTGGGGACTGGAGACGTGCTA	-0.548 z-score
